{"data": "Measured values gathered from unrelated publications", "note": "Each numbered part is a random draw from the data of one study; scales do not carry over between parts. Substitutions count along the parent as printed."}
{"data": "Study 1", "target": "UBE2D2 UBC core domain (UniProt P62837)", "method": "yeast two-hybrid", "sample": "yeast", "setting": "mostly zero background", "relative to": "not given", "reading": "higher = stronger interaction", "B1": "TRIM69 RING domain (UniProt Q86WT6); chain VIQDITMELHCPLCNDWFRDPLMLSCGHNFCEACIQDFWRLQAKETFCPECKMLCQYNNCTF", "B2": "TRIM63 RING domain (UniProt Q969Q1); chain PMENLEKQLICPICLEMFTKPVVILPCQHNLCRKCANDIFQAANPYWTSRGSSVSMSGGRFRCPTCRHEVIMDRHGV", "sequence of UniProt P62837 (whole entry, looked up)": "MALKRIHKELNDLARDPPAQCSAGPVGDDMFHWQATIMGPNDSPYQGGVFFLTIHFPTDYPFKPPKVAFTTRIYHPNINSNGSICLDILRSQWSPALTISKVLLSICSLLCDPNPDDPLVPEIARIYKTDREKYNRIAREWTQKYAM"}
{"Sequence": "FPEHFVKSISCQICEHILADPVETNCKHVFCRVCILRCLKVMGSYCPSCRYPCFPTDLES (RAG1 RING domain (UniProt P15918))", "lacZ reporter activity": 0}
{"Sequence": "B1 (TRIM69 RING domain)", "lacZ reporter activity": 0}
{"Sequence": "B2 (TRIM63 RING domain)", "lacZ reporter activity": 0}
{"data": "Study 2", "target": "Phosphate system positive regulatory protein PHO4, full length, GST-tagged (PHO4, Saccharomyces cerevisiae, UniProt P07270, residues 1-312)", "method": "competition protein-binding microarray", "form": "double-stranded DNA, one strand shown", "sample": "in vitro", "concentration": "2 µM", "setting": "whole 60-bp probe, lowest competitor level", "with": "Cbf1 competitor, 0.05 µM", "reading": "higher = stronger binding", "all sequences stand within": "… GTCTTGATTCGCTTGACGCTGCTG", "Target sequence (chain)": "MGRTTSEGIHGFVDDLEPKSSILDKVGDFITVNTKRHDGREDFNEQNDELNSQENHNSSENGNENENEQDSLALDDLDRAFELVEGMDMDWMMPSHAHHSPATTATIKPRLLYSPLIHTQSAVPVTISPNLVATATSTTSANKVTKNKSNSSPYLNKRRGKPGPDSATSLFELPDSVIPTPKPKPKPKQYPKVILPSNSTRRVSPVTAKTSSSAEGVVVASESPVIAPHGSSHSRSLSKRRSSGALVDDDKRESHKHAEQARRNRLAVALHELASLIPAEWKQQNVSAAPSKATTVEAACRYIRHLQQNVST"}
{"Oligonucleotide": "CTCCCACCAGAACGTCACCTGCTCTCTTAATCAATG", "fluorescence intensity": "6170 a.u."}
{"Oligonucleotide": "CCATTGTACGGTTCGTACGTGGGTACAATGAATTAC", "fluorescence intensity": "6900 a.u."}
{"Oligonucleotide": "AATTCAAATGTGGACGTCGTGACTCGAAACAGCATA", "fluorescence intensity": "6250 a.u."}
{"Oligonucleotide": "GTATAAAAAGAGTGGCATGTGAACTGCCTACCGTAA", "fluorescence intensity": "7130 a.u."}
{"Oligonucleotide": "GCTAAATCATATTCCAACGTGTAATGAACGTCCTGG", "fluorescence intensity": "10200 a.u."}
{"Oligonucleotide": "GAAGCGTACGCCCATCACGTGACGGAAGTTGCAATG", "fluorescence intensity": "13000 a.u."}
{"Oligonucleotide": "ACCCGGTGCAGGTTCGTCGTGCCGAAAGACTCACCA", "fluorescence intensity": "5620 a.u."}
{"Oligonucleotide": "TTATGGATAGAGTCCCACGCTGATATAAACACCATA", "fluorescence intensity": "7490 a.u."}
{"data": "Study 3", "target": "CCNE2, cyclin fold, Cln2 fusion (human)", "method": "yeast growth competition, sequencing", "sample": "yeast", "setting": "weak parent motif", "relative to": "not given", "reading": "higher = stronger binding", "starting sequence": "PKMYT1 docking peptide (human); SFEPRNLLSLFED; partner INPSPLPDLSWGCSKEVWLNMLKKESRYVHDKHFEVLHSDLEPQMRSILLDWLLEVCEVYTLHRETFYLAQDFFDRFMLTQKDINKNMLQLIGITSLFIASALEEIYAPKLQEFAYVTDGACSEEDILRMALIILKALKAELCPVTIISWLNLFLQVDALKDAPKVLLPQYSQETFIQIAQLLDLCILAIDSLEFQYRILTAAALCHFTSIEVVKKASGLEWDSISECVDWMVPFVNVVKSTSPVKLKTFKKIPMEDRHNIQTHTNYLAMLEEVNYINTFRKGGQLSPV"}
{"Substitution": "L10P", "normalised enrichment score": -0.182}
{"Substitution": "L7Y", "normalised enrichment score": -0.667}
{"Substitution": "F11P", "normalised enrichment score": -0.183}
{"Substitution": "N6C", "normalised enrichment score": 0.402}
{"Substitution": "S1K", "normalised enrichment score": -0.0342}
{"Substitution": "R5F", "normalised enrichment score": -0.457}
{"Substitution": "N6G", "normalised enrichment score": -0.636}
{"Substitution": "D13A", "normalised enrichment score": 1.21}
{"data": "Mixed results"}
{"Sequence": "KNYPASLHK", "target": "HLA class I histocompatibility antigen, A alpha chain, allele A*26:03 (Homo sapiens, UniProt P04439)", "effect on": "peptide-MHC binding", "form": "peptide", "concentration": "concentration not given", "endpoint": "binding", "result": "inactive"}
{"note": "Some of these lines once more (study 1):"}
{"Sequence": "FPEHFVKSISCQICEHILADPVETNCKHVFCRVCILRCLKVMGSYCPSCRYPCFPTDLES (RAG1 RING domain (UniProt P15918))", "lacZ reporter activity": 0}
